# Experimental data pooled from the literature.
# Each numbered part is a random draw from the data of one study; scales do not carry over between parts. “And” joins repeats or separate records; there may be more than shown. Positions count from the first letter of the parent shown.

# Sample 1 — target: CCNB2, cyclin fold, Cln2 fusion (human); technique: yeast growth competition, sequencing; medium: yeast; notes: weak parent motif; reference: not given; direction: higher = stronger binding
# Starting sequence: CDC6 docking peptide (human); TLKGRRLVFDNQL
Substitution,normalised enrichment score
TLKGRRLQFDNQL [V8Q],-0.488
TLGGRRLVFDNQL [K3G],-0.00342
TLKGRRPVFDNQL [L7P],0.0358
TLKGRRLYFDNQL [V8Y],0.306
TLKGRRLVFINQL [D10I],0.766
TLKGRRLVFDNFL [Q12F],-0.217
TLKGIRLVFDNQL [R5I],-0.341
TLKGHRLVFDNQL [R5H],-0.0571
TLKGMRLVFDNQL [R5M],-0.13
TLRGRRLVFDNQL [K3R],0.728
TLKHRRLVFDNQL [G4H],0.319
TLKGRRLVFDNML [Q12M],0.107
TLKDRRLVFDNQL [G4D],0.226
TLKGRRLSFDNQL [V8S],0.0722
TLKGRRLVFDEQL [N11E],0.0637
TLKGNRLVFDNQL [R5N],-0.282

# Sample 2 — technique: protein binding microarray; molecule type: double-stranded DNA, one strand shown; medium: in vitro; concentration: not given; reference: not given; direction: higher = stronger binding
# Target: Histone acetyltransferase KAT6A, both winged helices, GST fusion (KAT6A, Homo sapiens, UniProt Q92794, residues 1-181)
# Notes: 8-mer, flanks averaged, mean of 2 arrays, mostly near background
# Construct (chain): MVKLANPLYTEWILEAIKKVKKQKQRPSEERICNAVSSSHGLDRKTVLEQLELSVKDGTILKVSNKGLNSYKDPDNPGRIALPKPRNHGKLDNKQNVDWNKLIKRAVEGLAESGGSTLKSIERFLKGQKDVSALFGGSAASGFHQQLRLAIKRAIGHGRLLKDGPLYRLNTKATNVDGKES
Sequence,E-score
AGATGTTA,-0.0771
AGCCTCTC,-0.261
AAGTACCG,0.208
GGCCATCA,-0.0449
GTCTTGAA,0.0155
ATCTTTGA,-0.0864
TCCCTTCA,-0.216
TAGGCGAA,-0.00894
CAGGATAA,-0.21
CCATCAAG,-0.187
ATTAGTTC,-0.107
CGAGGCCA,-0.178
TACCAGTA,-0.218
GTGCTATA,-0.0885
ACGACGTA,-0.0176
ACATGAGT,0.0111
ACGTCGTC,0.139
AACGTACC,-0.0614
CTAAACAA,-0.158
AGTAGGTG,-0.125
AGCGTGGA,0.138
CGGGATCA,0.175

# Sample 3 — technique: RNA Bind-n-Seq; molecule type: RNA; medium: in vitro; concentration: 365 nM; reference: no-protein control; direction: higher = stronger binding
# Target: RNA binding protein fox-1 homolog 2, RRM domain, GST-SBP tag (RBFOX2, Homo sapiens, UniProt O43251-10, residues 100-194)
# Notes: natural RNA segment, single round, ends assumed
# All sequences stand within: GGGAGUUCUACAGUCCGACGAUC … UGGAAUUCUCGGGUGCCAA
# Target sequence (chain): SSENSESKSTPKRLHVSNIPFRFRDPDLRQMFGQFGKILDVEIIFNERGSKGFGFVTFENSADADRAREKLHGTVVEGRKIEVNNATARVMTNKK
Sequence,RBNS enrichment (R)
CUGUCUCCUUGGGUGUCUGCUCUGCAUGGCACUGUAAAGCUUCGGUAUUUUGAGUGUUCUUCUUUCUUAGACCCACCCGCGGGAACCGUUCACAGGUACCCUCCCUCGGG,0.48
GCCAACAUUUAAAAAAGUAUGAAAAUGAUUUAUUUUUAUAUGAUGUAUACCCAUAAAGAAUGCUCAUAUUAAUGUACUUAAAUUACACAUGUAGAGCAUAUCUGUUAUAU,0.578
UCUAGCCUGGGGCUUGAAUUUGCAUGUCUAAUUCAUUUACUCACCAUAUUUGAAUUGGCCUGAACAGAUGUAAAUCGGGAAGGAUGGGAAAAACUGCAGUCAUCAACAAU,3.02
GAAUUCUUGCUUUUAAGUUCCUUUUGAUAUGUAUAUAAGCAAAGACCAGGGAUAAAUGGAAUUUUUAAAAUACAGGCUGCUGUGUUGGGGCCAGAAAUACAAGGUUGAUG,0.527
GUGCUGGAACAGAUUGUCUGGGAGGCUAGAGCCCUGCCUGUAGAGAAAACACUCUUCUCAGGAGUAGGAGAGCCUGGAGGGCUGUCAGCACCACAGUGACCUAAGCGGCU,0.988
ACUCCACGCUCCCCACAGGCCAACCCUGGCACAGGUCAUGUCUGCAGCCCCCAGAAUGUUCUGGACAUGCACCACCAGCCGGUGGUCCCAAUGUCCACCCCUGCCUCCCC,0.737
GUUGGGGAGACAGAGGGGUUCAGACUUGGGAAGAAUCUGUCAGUGUGCAUGGAGUGAGGUGUGUGUGUGUGGAUGGAUGUGCACGUGUGCAUGCUUUUUUUCUUUUUGCC,8.86
GAGUCCUAGGUAUGAACCCAAAAGCCCUGGGUACGGUUCAAAGAGCCCCGAAUUUGAAUCUCAAAGUCCAGGGUAUGAAUCUCAGAGCCCCGGGUAUGAACCGCAGAACU,0.304
UUUGUACAACUCUUACUUUCUAUGUGAUAAGAAUGCAAUAUGUGCCUCUUUCCCCUACUAGCCCCAUGUGACACAUAUUUUUCACACUAUGUGGCAUCAACCAGUGCCAU,14.6
GAAAUCUGACUAUCUGCUAGUUGCCAAAACCCAGAAACAUUCCUGUGUAAUGGUUAGUUGGGAAAGAAGGCAGCACUUGAAAAAAUUUACCAGGUUCCUCACUGGGAGAU,0.482
AGCCUAGCCAUCCACCCCACACGGAGCUGCAUCCAACAUGCAGACAUGCGCCACCAAGCAGAUCCCAGCAAGGGUGCCCCAGUCACAUCCUUGGCCAUGCAGUUAGCACC,0.397
GCAUGUCAAAGAGACCUAGGUUCUUUCUUUCUUUCUUUCUCUCUUUCUUUCAGUUUGCUUUUGGUUUCCUGUAUAUUUGCUUACUGUGCUGUUCUAGUGGUUGUAGGGUA,16.3

# Sample 4 — technique: protein-binding microarray; molecule type: double-stranded DNA, one strand shown; medium: in vitro; concentration: 250 nM; notes: 60-bp whole probe; together with: salmon DNA 0.4 mg/ml; reference: random background probes; direction: higher = stronger binding; all sequences stand within: GCCTAGCAC … GTCTTGATTCGCTTGACGCTGCTG
# Target: Interferon regulatory factor 5, full length, phosphomimetic (IRF5, Homo sapiens, UniProt Q13568-2, residues 1-514, K96S/S451D/S453D/S456D/S462D)
Sequence,log fluorescence [z-score]
GAAAGCCTGCTGCCAGTCTGGTGCTAG,0.351
TTAGATTTCAGACTGGGTTAGTGCTAG,0.221
GACGGACTGCCTTTCCTGACGTGCTAG,-0.558
TTAGGTTTCAGGTTTCGGTTAGTGCTA,8.47
TTAGATCTCTGTCTCGATTAGTGCTAG,0.442
GACGATTTCAGACTGGAGCCGTGCTAG,0.0591
GACTATCTCAGTATCGAGACGTGCTAG,2.14
GACGATCTCAGTATCCAGACGTGCTAG,0.125
TTAGAACTGGGCTATCGATTAGTGCTA,2.16
GACGGTCTCCTACTGCGGACGTGCTAG,-0.338
ATAGGACTGGGTATCGGTTAGTGCTAG,4.31
TGATCCAAAAAGTGTGAGAAGTGCTAG,0.363
GACGGTATCGACACTGTGGACGTGCTA,1.47
GACGATTTCGGGATTGGAGACGTGCTA,2.34
GACGGTGTCCTTTTCCTGACGTGCTAG,0.057
GAAGGACTGGGGTTTCGGGACGTGCTA,1.3
TTAGGTCTAGGTTTCGGTTAGTGCTAG,8.07
TTAGGTTACGGTATCGGTTAGTGCTAG,4.59

# Sample 5 — technique: RNA Bind-n-Seq; molecule type: RNA; medium: in vitro; concentration: not given; reference: input RNA pool; direction: higher = stronger binding
# Target: RING finger protein unkempt homolog, zinc fingers 1-6, GST-SBP tag (UNK, Homo sapiens, UniProt Q9C0B0, residues 30-357)
# Notes: RNA with constant flanks, human-mouse chimeric sites, ends assumed
# All sequences stand within: GGGAGUUCUACAGUCCGACGAUC … CAACAGAGGAUUGAGCAUCA
# Construct (chain): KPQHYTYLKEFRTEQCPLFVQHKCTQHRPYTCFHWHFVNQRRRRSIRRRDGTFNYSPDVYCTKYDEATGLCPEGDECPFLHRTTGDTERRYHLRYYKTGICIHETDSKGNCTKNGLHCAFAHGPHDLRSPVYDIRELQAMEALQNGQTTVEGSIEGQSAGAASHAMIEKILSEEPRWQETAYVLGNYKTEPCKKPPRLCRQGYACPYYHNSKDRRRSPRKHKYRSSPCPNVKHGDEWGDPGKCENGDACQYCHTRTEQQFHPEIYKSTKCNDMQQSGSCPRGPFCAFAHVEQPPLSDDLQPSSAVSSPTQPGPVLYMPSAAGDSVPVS
Sequence,bound/input enrichment [ratio]
CCAAUUGUGGAGCAGUACUUGAAGACAAAAAAGAACUCUAAUAAUUUAAUCAUGAAAUACAUUAGCUGCCGCCUGCUGACACUCAUCAUUAUACUGUUAGCGUGUAUCUACCUGGGCUAU,1.37
GUAGCUGGGACUACAGAAGAAUGCUGAAUUUCAGUCAGUGAGUCGUGACUUCUGAUGUCCCAGCAAAUGUUGGCAUUGUUGACUGCUGAGAAGAUACUUCUGAGGACCCACGUCUAAGGU,0.0625
UAUCCAACUUUCUUGCCACAUUUUGAAUUCCAAGACAUUAUUCCUCCAGAUGACUUCCUAACGAGUGAUGAAGAGCAAGAUUUGGUUUUAUUUGGAACUAUGAGAGGUCAUGUGGUUGGA,0.271
UCUGGUCACACUCGUGUGUAUGGUGUUUGCUUUGUGGACACUUCACUGGGCAAGUUUUUCAUAGGUCAGUUUUCAGAUGACCGCCACUGUUCCAGAUUUAGGACGCUAGUGGCUCACUAU,0.283
UCUGGUCAUACUCGUGCGUAUGGUGUUUGCUUUGUGGACACUUCACUGGGCAAGUUUUUCAUCGGCCAGUUUUCGGAUGACCGCCACUGUUCCAGAUUUAGGACGCUAGUGGCUCACUAU,0.196
GAUCCACAGUGGUCUGAGGAACAGCUGAUUGCUGCAAAAUUCUGUUUUGCUGGACUUGUUAUAGGGCAGACUGAAGUGGACAUCAUGAGUCAUGCCACACAAGCUAUUUUUGAAAUUCUG,0.227
GAUAAGAAAAGCUUGUUGGAGACCCGAUUGCAUGUCACUGGUAGAGACCUGAGGUGUCAAAUAGCUGAAACCUUUGGAUUUCAAGAAAAUUACAUCAAGAUCGUAAUAAAUAAGAAACAG,0.262
GGACCAUAAUCAUGGAGGACAUGAUGGAGCUCCCCAAAGCGCGCGUCAACGCCAGCAUGUUACCACAGUAUAUCGACCGGCCCGUGUGCUUCGUGGGGAAGCUGGAAAAGAUUCAUCCCA,0.103
UAAGUCCUGUGCCAGCACUUCGCUCAUAAAGUUUUAAAUUCUGGACCAAUAGUGUUUGUUUCCUGAUUAUUGUAUCCAAUACUUUAUCUAGUAUGUAACUCAUGCUUACUGAUAAUAAAA,0.523
GUAAUGGACGUUAAUACUGCUCUACAAGAGGUGCUGAAGACCGCCCUCAUCCACGAUGGCCUAGCACGUGGCAUACGCGAAGCUGCCAAAGCCUUAGACAAGCGCCAAGCCCAUCUGUGU,0.294
GCUCCUCCCCGCUCUGCAGCCUGGGGACACUGGGCUGGGACCAGAAUCCAGCUUUCUUUUAAAACUCUCAGUGUAACUGUAUCCCGUGACAUUUCAUUUUUUUUUUAUAGUGUAUUUUUU,14.1

# Further values, each from its own experiment
Molecule,target,assay,system,conditions,scale,endpoint,value
"PhoQ, residues 284 288 289 292 302 303 ALVSVA","PhoP, residues 12 14 15 18 19 LWHSL (Escherichia coli, UniProt P23836)","Sort-seq, item: YFP reporter",E. coli,"PhoQ-PhoP variant library, together with: 10 µM Mg2+","reference: high Mg2+ state, higher = stronger signaling",fold induction,15.1 and 31.5

# A few entries again (sample 2):
Sequence,E-score
ACGTCGTC,0.139
CAGGATAA,-0.21
CGAGGCCA,-0.178
ATTAGTTC,-0.107
GTCTTGAA,0.0155
GTGCTATA,-0.0885
AGATGTTA,-0.0771
AGCGTGGA,0.138
